Assay results pooled from the literature.
Protocols differ between the studies behind these lines. Several values in a cell are separate wells, animals, samples, runs or records. ± gives the spread as reported.

C=C1C[C@@]23CC[C@H]4[C@@](C)(CCC[C@@]4(C)C(=O)O[C@@H]4O[C@H](CO)[C@@H](O)[C@H](O)[C@H]4O)[C@@H]2CC[C@]1(O[C@@H]1O[C@H](CO[C@H]2O[C@H](CO)[C@@H](O)[C@H](O)[C@H]2O)[C@@H](O)[C@H](O)[C@H]1O[C@@H]1O[C@H](CO)[C@@H](O)[C@H](O)[C@H]1O)C3
remaining concentration (aqueous solution; 1% w/v, 1 months, 25 °C; baseline: initial): > 95%

COc1cc(NC(C)=O)c2c(c1O)-c1c(OC)c(OC)cc3c1C(C2)N(C)CC3 (stereo not drawn)
remaining compound (rat heart homogenate; 50 µg/mL, 4 h, room temperature, short-term storage): 89.4 ± 2.3%

N=C(N)NCCC[C@H](N)C(=O)N1CCC[C@H]1C(=O)NCC(=O)NCC(=O)O
remaining peptide (diketopiperazine formation, ESI-MS; 1-propanol; 5 µM, 90 min, 70 °C, 0.5% acetic acid; baseline: initial signal): 29%

O=C([O-])CN1CCN(CC(=O)[O-])CCN(CC(=O)[O-])C(Cc2ccc(NC(=S)NCCc3ccc4c(c3)C3C=CCC3C(c3cc5c(cc3Br)OCO5)N4)cc2)CN(CC(=O)[O-])CC1.[111In+3] (stereo not drawn)
remaining intact compound (PBS; up to 4 days, pH 7.4, 37 °C, In(III) complex): > 90%

C=CC(=O)Nc1cc(Nc2nccc(-c3cn(C)c4ccccc34)n2)c(OCC(F)(F)F)nc1N(C)CCNC
remaining parent compound (LC-MS; human liver microsomes; 3 µM, 60 min, added: ticlopidine 24 µM; baseline: no inhibitor): 62%

CC[C@H](C)[C@@H]1NC(=O)[C@H](CCCCN)NC(=O)[C@H](CCCCN)NC(=O)[C@H](Cc2ccc(O)cc2)NC(=O)[C@H](CC(C)C)NC(=O)[C@@H]2CCCN2C(=O)CNC(=O)CNC(=O)[C@@H](NC(=O)CN)CSSC[C@@H](C(=O)N[C@@H](CCC(=O)O)C(=O)N[C@@H](CO)C(N)=O)NC(=O)[C@H](CC(C)C)NC(=O)[C@H](CCCCN)NC(=O)[C@H](CCCCN)NC(=O)[C@H]([C@@H](C)CC)NC(=O)[C@H]([C@@H](C)CC)NC(=O)[C@H](CCCCN)NC(=O)[C@H](CCCCN)NC(=O)[C@H](Cc2ccc(O)cc2)NC(=O)[C@H](CC(C)C)NC(=O)[C@@H]2CCCN2C(=O)[C@H](C)NC(=O)CNC(=O)CNC(=O)[C@H](CO)NC(=O)CNC(=O)CNC(=O)[C@H](CO)NC(=O)[C@H](CCC(=O)O)NC(=O)[C@H](CC(C)C)NC(=O)[C@H](CC(C)C)NC(=O)[C@H](CCCCN)NC(=O)[C@H](CCCCN)NC(=O)[C@H]([C@@H](C)CC)NC1=O
remaining intact peptide (25% human serum; 50 µM, 24 h; baseline: 0 h control): 53.7 ± 3.9%

CCCC(CCC)NC(=O)c1ccc(O)c(OC)c1
remaining parent compound (rat liver microsomes; 1.0 µM, 0 min, pH 7.4): 100%

CC(C)c1cnn2c(NCc3ccccc3F)cc(N[C@H]3CC[C@@H](N)CC3)nc12
remaining parent compound (mouse liver S9 fraction; 5 µM, 60 min, pH 7.4, added: NADPH): > 50%

CSCC(NC(=O)c1cc(Cl)ccc1Cl)C(=O)NC(CC(C)C)B(O)O (stereo not drawn)
remaining compound (rat liver microsomes; 3 µM, 60 min, pH 7.4, added: NADPH): 61 ± 0.44%

O=C([O-])CN1CCN(CC(=O)[O-])CC(Cc2ccc(NC(=S)NCCOCCOCCOCCOCCOCCOCCOCCNC(=O)CCCC(=O)NCc3ccc(-c4nncnn4)cc3)cc2)N(CC(=O)[O-])CC1.[64Cu+2] (stereo not drawn)
remaining intact compound (PBS; 2 h, pH 7.4, 37 °C): 87 ± 1.3%

CCCC(CCC)NC(=O)c1ccc(OC)c(O)c1
remaining parent compound (rat liver microsomes; 1.0 µM, 5 min, pH 7.4): 87%

C=CC(=O)Nc1cc(Nc2nccc(-c3cn(C)c4ccccc34)n2)c(OCC(F)(F)F)nc1N(C)CCN(C)C
remaining parent compound (LC-MS; human liver microsomes; 3 µM, 60 min, added: sulfaphenazole 6 µM; baseline: no inhibitor): 58%

CC[C@H](C)[C@H](NC(=O)CNC(=O)CNC(=O)c1ccc2c(c1)C(=O)OC21c2ccc(O)cc2Oc2cc(O)ccc21)C(=O)N[C@@H](Cc1ccc(O)cc1)C(=O)N[C@@H](C)C(=O)N(C)CC(=O)N1CCC[C@H]1C(=O)N(C)[C@@H](Cc1ccccc1)C(=O)N[C@@H](CCCCN)C(=O)N[C@@H](CCCCN)C(=O)N[C@@H](CCCCN)C(N)=O
remaining peptide (CE-LIF; Baf/BCR-ABL cytosolic lysate; 1 µM, 60 min, 37 °C): 32 ± 3%

O=C([O-])CN1CCN(CC(=O)[O-])CCN(CC(=O)NCCc2ccc3c(c2)C2C=CCC2C(c2cc4c(cc2Br)OCO4)N3)CCN(CC(=O)[O-])CC1.[111In+3] (stereo not drawn)
remaining intact compound (PBS; up to 4 days, pH 7.4, 37 °C, In(III) complex): > 90%

CC(C)(O)[C@H]1Cc2cc3ccc(=O)oc3cc2O1
remaining analyte (extracted rat plasma QC samples; 24 h, 4 °C, post-preparative storage): 101 ± 6.6%

CNC(=O)c1ccc(N2CCN(Cc3ccc4nc(C)c(=O)[nH]c4c3F)CC2)c([18F])n1
remaining parent (cynomolgus monkey plasma; 90 min): > 95%

C[C@@H](O)[C@H](N)C(=O)N1CCC[C@H]1C(=O)NCC(=O)NCC(=O)O
remaining peptide (diketopiperazine formation, ESI-MS; 1-propanol; 5 µM, 90 min, 70 °C, 0.5% acetic acid; baseline: initial signal): 59%

CCCC1OC2CC3C4CCC5=CC(=O)C=CC5(C)C4C(O)CC3(C)C2(C(=O)COC(=O)CN)O1 (stereo not drawn)
remaining conjugate (aqueous buffer; 200 µg/mL, 48 h, pH 1.2, 37 °C): 76.2%

COc1c2c(cc3oc(COC4OC(CO)C(O)C(O)C4O)cc(=O)c13)OC(C(C)(C)O)C2 (stereo not drawn)
remaining concentration (simulated intestinal fluid with pancreatin; 213.47 nmol/L, 2 h, pH 6.8, 37 °C): 0.38 nmol/mL

Cn1cc(-c2ccnc(N)n2)c2ccccc21
remaining parent compound (LC-MS; human liver microsomes; 3 µM, 60 min, added: sulfaphenazole 6 µM; baseline: no inhibitor): 88%

CCCC1OC2CC3C4CCC5=CC(=O)C=CC5(C)C4C(O)CC3(C)C2(C(=O)COC(=O)CN(C)C)O1 (stereo not drawn)
remaining conjugate (aqueous buffer; 200 µg/mL, 48 h, pH 1.2, 37 °C): 88.5%

C=CC(=O)Nc1cc(Nc2nccc(-c3cn(C)c4ccccc34)n2)c(OCC(F)(F)F)nc1NC
remaining parent compound (LC-MS; human liver microsomes; 3 µM, 60 min, added: quercetin 20 µM; baseline: no inhibitor): 37%

CN(Cc1ccc(F)cc1)Cc1cc(=O)oc2cc(O)ccc12
remaining intact compound (human serum; 0.5 mM, 60 min): > 99%

C=CC(=O)Nc1cc(Nc2nccc(-c3cn(C)c4ccccc34)n2)c(O)nc1N(C)CCN(C)C
remaining parent compound (LC-MS; human liver microsomes; 3 µM, 60 min, added: α-naphthoflavone 2 µM; baseline: no inhibitor): 147%

CC(C)Oc1ncnc2c1c(Cl)cn2[C@@H]1O[C@H](CO)[C@@H](O)[C@H]1O
remaining parent compound (bovine liver microsomes; 30 min): ≥ 50%

C=CC(=O)Nc1cc(Nc2nccc(-c3cn(C)c4ccccc34)n2)c(OCC(F)(F)F)nc1NCCN(C)C
remaining parent compound (LC-MS; human liver microsomes; 3 µM, 60 min, added: ticlopidine 24 µM; baseline: no inhibitor): 58%

COC(=O)c1ccc2c(c1)NC(=O)/C2=C(\Nc1ccc2c(c1)CCN2C(=O)CN1CCOCC1)c1ccccc1
remaining compound (SD rat plasma; 1 µM, 4 h, 37 °C): 67% and 67.2%
